Experimental data from different studies.
Lines come from different studies, so protocols differ. Several values in a cell are separate wells, animals, samples, runs or records. Numbers after ± are the reported error. Non-standard residues stand in square brackets, D forms with d. No end group written: not given here.
CHRM1: Muscarinic acetylcholine receptor M1 (CHRM1, Homo sapiens, UniProt P11229)
Sequence of UniProt P11229 (whole entry, looked up): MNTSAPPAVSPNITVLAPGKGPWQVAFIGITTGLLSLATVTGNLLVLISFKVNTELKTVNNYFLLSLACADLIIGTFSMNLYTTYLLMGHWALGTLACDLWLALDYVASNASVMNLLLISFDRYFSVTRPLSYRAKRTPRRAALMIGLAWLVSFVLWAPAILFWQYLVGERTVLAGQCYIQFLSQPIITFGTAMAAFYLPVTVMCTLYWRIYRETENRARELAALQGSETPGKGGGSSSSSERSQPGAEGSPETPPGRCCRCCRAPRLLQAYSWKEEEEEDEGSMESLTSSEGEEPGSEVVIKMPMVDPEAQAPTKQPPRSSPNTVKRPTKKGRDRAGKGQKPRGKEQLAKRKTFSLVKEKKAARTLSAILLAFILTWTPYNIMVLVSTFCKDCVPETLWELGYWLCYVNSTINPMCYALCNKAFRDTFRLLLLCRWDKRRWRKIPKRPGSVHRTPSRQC
SCN10A: Sodium channel protein type 10 subunit alpha (SCN10A, Homo sapiens, UniProt Q9Y5Y9)
Sequence of UniProt Q9Y5Y9 (whole entry, looked up): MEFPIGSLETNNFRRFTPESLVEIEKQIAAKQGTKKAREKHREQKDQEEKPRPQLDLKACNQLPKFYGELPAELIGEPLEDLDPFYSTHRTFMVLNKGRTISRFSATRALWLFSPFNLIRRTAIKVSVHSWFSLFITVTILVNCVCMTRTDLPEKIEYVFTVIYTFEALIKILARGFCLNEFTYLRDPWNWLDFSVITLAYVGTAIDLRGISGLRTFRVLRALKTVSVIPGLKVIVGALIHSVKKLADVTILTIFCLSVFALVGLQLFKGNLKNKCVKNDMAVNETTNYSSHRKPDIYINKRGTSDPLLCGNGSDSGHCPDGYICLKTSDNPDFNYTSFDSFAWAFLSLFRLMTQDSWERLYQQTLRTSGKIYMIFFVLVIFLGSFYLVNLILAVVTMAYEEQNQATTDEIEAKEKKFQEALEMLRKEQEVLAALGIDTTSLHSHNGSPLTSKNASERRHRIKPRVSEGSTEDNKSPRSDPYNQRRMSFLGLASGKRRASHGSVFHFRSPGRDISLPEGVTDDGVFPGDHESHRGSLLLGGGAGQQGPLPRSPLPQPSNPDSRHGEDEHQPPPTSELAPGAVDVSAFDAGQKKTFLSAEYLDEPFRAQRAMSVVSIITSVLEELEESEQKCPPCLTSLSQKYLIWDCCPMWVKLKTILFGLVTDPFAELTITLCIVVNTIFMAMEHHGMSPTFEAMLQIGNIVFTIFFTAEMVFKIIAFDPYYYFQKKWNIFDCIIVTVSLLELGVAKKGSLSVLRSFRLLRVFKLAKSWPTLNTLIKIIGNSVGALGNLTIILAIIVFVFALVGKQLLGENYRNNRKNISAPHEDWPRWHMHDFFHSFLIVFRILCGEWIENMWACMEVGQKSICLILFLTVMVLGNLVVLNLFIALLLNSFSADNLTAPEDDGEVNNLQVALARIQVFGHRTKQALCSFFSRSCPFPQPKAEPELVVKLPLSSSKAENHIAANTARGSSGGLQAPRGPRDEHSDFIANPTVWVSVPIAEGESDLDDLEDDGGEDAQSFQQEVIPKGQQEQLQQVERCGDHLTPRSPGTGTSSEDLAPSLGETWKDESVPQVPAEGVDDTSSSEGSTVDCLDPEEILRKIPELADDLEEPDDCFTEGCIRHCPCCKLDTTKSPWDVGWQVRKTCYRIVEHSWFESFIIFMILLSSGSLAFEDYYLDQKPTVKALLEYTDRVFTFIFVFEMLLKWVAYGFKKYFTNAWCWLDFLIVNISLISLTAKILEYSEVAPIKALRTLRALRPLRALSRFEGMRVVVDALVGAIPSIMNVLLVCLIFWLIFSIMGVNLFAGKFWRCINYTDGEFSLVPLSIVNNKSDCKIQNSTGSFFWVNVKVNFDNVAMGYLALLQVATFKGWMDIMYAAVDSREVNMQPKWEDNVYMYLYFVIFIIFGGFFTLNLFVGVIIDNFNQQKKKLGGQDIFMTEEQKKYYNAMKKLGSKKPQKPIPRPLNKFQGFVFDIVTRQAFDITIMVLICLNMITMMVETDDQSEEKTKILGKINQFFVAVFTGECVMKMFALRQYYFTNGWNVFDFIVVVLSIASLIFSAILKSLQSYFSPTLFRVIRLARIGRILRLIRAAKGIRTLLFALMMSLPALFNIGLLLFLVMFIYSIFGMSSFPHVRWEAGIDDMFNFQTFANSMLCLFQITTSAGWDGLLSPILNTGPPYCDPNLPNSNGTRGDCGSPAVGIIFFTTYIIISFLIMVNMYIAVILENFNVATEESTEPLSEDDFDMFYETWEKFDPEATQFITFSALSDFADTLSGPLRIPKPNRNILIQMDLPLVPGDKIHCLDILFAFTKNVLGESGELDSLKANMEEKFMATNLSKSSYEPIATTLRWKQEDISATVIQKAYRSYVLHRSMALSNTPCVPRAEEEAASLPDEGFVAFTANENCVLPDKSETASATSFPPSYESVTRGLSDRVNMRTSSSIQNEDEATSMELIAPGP
CHRM4: Muscarinic acetylcholine receptor M4 (CHRM4, Homo sapiens, UniProt P08173)
Sequence of UniProt P08173 (whole entry, looked up): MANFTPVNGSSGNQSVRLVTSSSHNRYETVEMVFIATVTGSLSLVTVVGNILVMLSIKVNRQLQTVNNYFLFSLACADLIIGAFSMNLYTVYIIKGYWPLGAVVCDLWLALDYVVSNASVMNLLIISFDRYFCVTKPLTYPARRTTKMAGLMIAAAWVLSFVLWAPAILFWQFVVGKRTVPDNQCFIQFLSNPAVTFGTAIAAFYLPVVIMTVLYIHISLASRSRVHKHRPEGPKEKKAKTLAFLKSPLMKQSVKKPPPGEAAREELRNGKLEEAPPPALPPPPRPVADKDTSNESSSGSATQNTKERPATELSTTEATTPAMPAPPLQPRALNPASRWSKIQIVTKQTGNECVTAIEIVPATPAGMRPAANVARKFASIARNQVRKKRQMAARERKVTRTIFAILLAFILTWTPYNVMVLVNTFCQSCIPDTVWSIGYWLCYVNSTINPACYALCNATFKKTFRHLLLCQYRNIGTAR
Prkar2b S112A holoenzyme with catalytic subunit: cAMP-dependent protein kinase type II-beta regulatory subunit, holoenzyme with catalytic subunit (Prkar2b, Rattus norvegicus, UniProt P12369, S112A)
Sequence of UniProt P12369 (whole entry, unmodified, looked up): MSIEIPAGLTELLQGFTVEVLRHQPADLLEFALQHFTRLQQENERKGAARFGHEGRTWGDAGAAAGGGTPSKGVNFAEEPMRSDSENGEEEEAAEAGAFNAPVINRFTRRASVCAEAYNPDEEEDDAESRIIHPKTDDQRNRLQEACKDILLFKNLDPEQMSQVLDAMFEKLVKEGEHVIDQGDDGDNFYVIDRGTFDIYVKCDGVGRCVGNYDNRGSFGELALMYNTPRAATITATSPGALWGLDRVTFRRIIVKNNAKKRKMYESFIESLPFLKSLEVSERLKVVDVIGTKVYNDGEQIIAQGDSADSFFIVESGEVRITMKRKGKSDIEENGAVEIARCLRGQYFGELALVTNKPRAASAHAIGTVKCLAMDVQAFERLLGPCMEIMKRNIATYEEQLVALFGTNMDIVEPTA
ESR2: Estrogen receptor beta (ESR2, Homo sapiens, UniProt Q92731)
Sequence of UniProt Q92731 (whole entry, looked up): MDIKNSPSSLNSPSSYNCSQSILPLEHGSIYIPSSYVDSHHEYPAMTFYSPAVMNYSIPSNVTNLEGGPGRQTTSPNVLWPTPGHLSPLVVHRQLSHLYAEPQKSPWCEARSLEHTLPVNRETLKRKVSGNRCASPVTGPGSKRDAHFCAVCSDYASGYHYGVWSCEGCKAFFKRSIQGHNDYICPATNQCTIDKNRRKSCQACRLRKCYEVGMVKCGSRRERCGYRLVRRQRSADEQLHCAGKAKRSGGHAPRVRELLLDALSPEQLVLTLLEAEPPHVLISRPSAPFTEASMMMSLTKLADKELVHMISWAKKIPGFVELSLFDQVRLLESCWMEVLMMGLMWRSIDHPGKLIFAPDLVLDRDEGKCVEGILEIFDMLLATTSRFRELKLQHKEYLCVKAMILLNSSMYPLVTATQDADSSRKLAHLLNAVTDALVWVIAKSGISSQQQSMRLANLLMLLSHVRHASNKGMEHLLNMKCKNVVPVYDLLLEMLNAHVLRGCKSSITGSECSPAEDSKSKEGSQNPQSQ
Grm5: Metabotropic glutamate receptor 5 (Grm5, Rattus norvegicus, UniProt P31424)
T1: c-di-GMP riboswitch (Clostridium acetobutylicum); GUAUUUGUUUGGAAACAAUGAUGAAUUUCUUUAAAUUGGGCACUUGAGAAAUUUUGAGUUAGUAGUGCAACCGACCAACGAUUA
B1: N-βAla, stapled; βAla = NCCC(=O)O; chain [βAla]RTKQEARKSTGG (also: sidechain bridge or staple (positions not given here))
Sequence of UniProt P14780 (whole entry, looked up): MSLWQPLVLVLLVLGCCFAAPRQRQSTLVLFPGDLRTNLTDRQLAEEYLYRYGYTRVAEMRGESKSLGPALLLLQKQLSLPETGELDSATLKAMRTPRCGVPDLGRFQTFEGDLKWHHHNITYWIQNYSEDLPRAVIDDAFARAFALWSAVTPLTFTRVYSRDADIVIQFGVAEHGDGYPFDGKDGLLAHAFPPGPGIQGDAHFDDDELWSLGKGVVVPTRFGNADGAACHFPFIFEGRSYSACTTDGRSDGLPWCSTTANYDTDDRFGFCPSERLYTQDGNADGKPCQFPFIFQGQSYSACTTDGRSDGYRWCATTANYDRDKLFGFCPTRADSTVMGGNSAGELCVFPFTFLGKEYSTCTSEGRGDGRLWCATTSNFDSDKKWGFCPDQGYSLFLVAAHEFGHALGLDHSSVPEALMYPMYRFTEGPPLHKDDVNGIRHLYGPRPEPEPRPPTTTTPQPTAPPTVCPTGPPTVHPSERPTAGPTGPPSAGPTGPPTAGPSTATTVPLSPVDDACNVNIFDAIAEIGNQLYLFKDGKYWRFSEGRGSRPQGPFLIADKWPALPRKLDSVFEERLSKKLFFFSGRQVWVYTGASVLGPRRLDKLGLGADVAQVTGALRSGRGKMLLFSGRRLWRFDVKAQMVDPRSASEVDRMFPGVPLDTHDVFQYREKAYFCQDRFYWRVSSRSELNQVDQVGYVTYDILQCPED
Sequence of UniProt P17787 (whole entry, looked up): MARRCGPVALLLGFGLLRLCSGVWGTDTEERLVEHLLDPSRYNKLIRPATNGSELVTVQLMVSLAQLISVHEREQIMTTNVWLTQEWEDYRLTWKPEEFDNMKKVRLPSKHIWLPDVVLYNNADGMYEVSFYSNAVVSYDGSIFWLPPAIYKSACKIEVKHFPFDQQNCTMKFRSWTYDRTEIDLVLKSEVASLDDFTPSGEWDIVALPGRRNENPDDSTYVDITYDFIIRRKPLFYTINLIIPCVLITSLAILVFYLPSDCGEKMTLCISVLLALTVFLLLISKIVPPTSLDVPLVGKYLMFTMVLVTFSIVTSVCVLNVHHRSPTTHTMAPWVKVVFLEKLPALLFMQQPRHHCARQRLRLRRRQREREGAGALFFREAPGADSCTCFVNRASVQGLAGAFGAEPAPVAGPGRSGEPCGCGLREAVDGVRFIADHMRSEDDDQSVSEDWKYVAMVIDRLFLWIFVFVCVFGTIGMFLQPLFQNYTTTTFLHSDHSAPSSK

Under EC50, `CC1(C)Cc2cc(Cl)cc(C3CC3CN)c2O1` (racemic) is recorded as “inactive” (HTR2B (Homo sapiens, UniProt P41595); agonist, FLIPR calcium flux; HEK293; up to 10 µM).
`N=C(N)c1ccccc1` gave a current change of 0.32 µA (unc-8 (Caenorhabditis elegans, UniProt Q21974, G387E); ion current, two-electrode voltage clamp; Xenopus oocytes coexpressing MEC-2; 30 µM, -85 mV; relative to: uninjected oocytes, positive = inhibition).
With `C=CC(=O)NCCCC[C@H](NC(=O)OCc1ccccc1)C(=O)NCC(=O)OC` the kinact was 0.0242 ± 0.002 s⁻¹ (TGM2 (Homo sapiens, UniProt P21980); pH 6.5).
`glutathione` gave a remaining activity of 98.5 ± 3.6% (GAPDH (Homo sapiens, UniProt P04406); enzyme activity, inhibitor, spectrophotometric; 10 µM; relative to: vehicle).
`WFRMSIRGGYKKKK` gave a phosphorylation of under 1% (PLK1 (Homo sapiens, UniProt P53350, T210D); substrate; peptide; Km of kinase, 1 h, 30 °C; relative to: optimal peptide).
For `O=c1cc(N2CCOCC2)oc2c(OCc3cccnc3)cccc12`, “fold change in selectivity” read 10.6 (PIK3CA (Homo sapiens, UniProt P42336, H855E); enzyme activity; concentration not given, His-Glu swap; relative to: wild type).
Under “ΔpEC50 of ACh”, `Cn1ncc2ccc(COc3ccccc3-c3cc(=O)n(C4CCCCC4O)cn3)cc21` (stereo not shown) is recorded as 0.88 ± 0.1 log units (CHRM1; positive allosteric modulator, IP1 accumulation; CHO-M1 cells; 1 µM, 60 min, 37 °C, together with: ACh; relative to: ACh alone, higher = stronger potentiation).
Under “capacity factor k′”, `CCCN1CCN(C(C)C(=O)Nc2c(C)csc2C(=O)OC)CC1` (stereo not shown) is recorded as 55 (SCN10A; cell membrane chromatography; higher = stronger binding).
`COc1ccc(C)c2sc(C(=O)NC3CCCCC3)nc12`: activity “inactive” (CHRM4; calcium mobilization, positive allosteric modulator; CHO expressing hM4 and Gqi5; concentration not given, together with: acetylcholine EC20).
Under “change in baseline activity”, `CCNC(=O)c1ccc(COc2ccccc2-c2cc(=O)n(C3CCCCC3O)cn2)cc1` (stereo not shown) is recorded as 87.1 ± 2.8 (CHRM1; allosteric agonist, IP1 accumulation; CHO-M1 cells; 1 µM, unit not given; relative to: maximum ACh response).
`Nc1nc2c(ncn2[C@@H]2O[C@@H]3COP(=O)(O)O[C@H]3[C@H]2O)c(=O)[nH]1` gave a selectivity ratio of 3 (Prkar2b S112A holoenzyme with catalytic subunit; PKA holoenzyme activation, activator, fluorescence anisotropy; relative to: RIIβ over RIα, higher = RIIβ-selective).
`COc1ccccc1CN(CCO)C(=O)c1cc(C)c(C)s1` — result for Ca2+-ATPase activity: “inactive” (ATP2A2 (Sus scrofa, UniProt P11607); enzyme activity, NADH-coupled; porcine cardiac SR vesicles; up to 50 µM).
`Nc1nc2c(ncn2[C@@H]2O[C@@H]3COP(O)(=S)O[C@H]4[C@@H](O)[C@H](n5cnc6c(=O)[nH]c(N)nc65)O[C@@H]4COP(O)(=S)O[C@H]3[C@H]2O)c(=O)[nH]1` (stereo partly shown) has a Kd of 3.6 nM and 4 nM (T1, c-di-GMP riboswitch (Clostridium acetobutylicum); competitor, competition gel-shift; 4-24 h, pH 6.8, 22 °C, together with: radiolabelled c-di-GMP).
With `CCCCCCCCCCSc1nc2c([nH]1)c(=O)n(C)c(=O)n2C` the remaining activity was 72% (PGR (Homo sapiens, UniProt P06401); reporter gene, antagonist, MMTV-luciferase; T47D/A1-2; 10 µM, 24 h, together with: 5 nM progesterone; relative to: maximal activity).
With `CC[C@H](C)[C@H](NC(=O)[C@@H](NC(=O)[C@H](CC(=O)O)NC(=O)[C@H](CC(C)C)NC(=O)[C@H](CO)NC(C)=O)C(C)C)C(=O)N1CCC[C@H]1C(=O)N[C@H](C(=O)N[C@@H](C)C(=O)N[C@@H](CCC(N)=O)C(=O)N[C@@H](CC(C)C)C(=O)N[C@@H](CC(C)C)C(=O)N[C@@H](CO)C(=O)N[C@@H](CCSC)C(=O)N1CCC[C@H]1C(=O)N[C@@H](CO)C(=O)N[C@@H](CC(=O)O)C(=O)N[C@@H](CCC(N)=O)C(=O)N[C@@H](CC(=O)O)C(=O)N[C@@H](CC(N)=O)C(=O)N[C@@H](CC(N)=O)C(N)=O)C(C)C` the cleavage efficiency was ~93% and 93% (MMP9 (Homo sapiens, UniProt P14780); substrate, LC-MS/MS; 24 h, 37 °C, together with: peptide to enzyme 20:1 w/w).
With `B1` the methylation conversion was at least 90% (SETD7 (Homo sapiens, UniProt Q8WTS6); peptide methylation, substrate, MALDI-TOF MS; 10 µM, 3 h, pH 8.0, 37 °C, enzyme 500 nM, together with: SAM 30 µM).
`C[C@H](N)C(=O)N[C@@H](CCCNC(=N)N)C(=O)N[C@H](C(=O)N[C@@H](CCCCN)C(=O)N[C@@H](CCC(N)=O)C(=O)N[C@H](C(=O)N[C@@H](C)C(=O)N[C@@H](C)C(=O)N[C@@H](CCCCN)C(=O)N[C@@H](CO)C(=O)O)[C@@H](C)O)[C@@H](C)O` — result for “binding enthalpy ΔH”: -7.3 ± 0.3 kcal/mol (Autoimmune regulator, PHD1 domain (AIRE, Homo sapiens, UniProt O43918); ITC; concentration not given, pH 7.2, 23 °C).
For `CCC(C(=O)Nc1c(C)csc1C(=O)OC)N1CCN(C(C)C)CC1` (stereo not shown), “capacity factor k′” read 63 (SCN10A; cell membrane chromatography; higher = stronger binding).
Under IC50, `CSc1ccc(/C=C2/C(C)=C(CC(=O)O)c3cc(F)ccc32)cc1` is recorded as “inactive” (PDE1A (Homo sapiens, UniProt P54750); cAMP hydrolysis, inhibitor, IMAP fluorescence polarization; up to 200 µM).
For `CCCN(CCC)c1ncnc2c1ncn2[C@@H]1O[C@@H]2COP(=O)(O)O[C@H]2[C@H]1O`, the selectivity ratio was 9 and 9.2 (Prkar2b S112A holoenzyme with catalytic subunit; PKA holoenzyme activation, activator, fluorescence anisotropy; relative to: RIIβ over RIα, higher = RIIβ-selective).
The melting temperature of `Cc1nc[nH]c1-c1ccnc(Nc2ccc(N3CCOCC3)cc2)c1` is reported as 53.8 °C (MAPK10 (Homo sapiens, UniProt P53779); thermal stability, nanoDSF; 50 µM).
With `O=C(O)c1ccccc1-c1ccc(Cn2c3ccccc3c3ccccc32)cc1` the Emax was 25.6% (PPARG (Homo sapiens, UniProt P37231); COS-7; 10 µM, 39 h).
`O=C(O)c1ccc(COc2ccccc2-c2cc(=O)n(C3CCCCC3O)cn2)cc1` (stereo not shown) — result for “change in baseline activity”: -6.7 ± 2.8 (CHRM1; allosteric agonist, IP1 accumulation; CHO-M1 cells; 1 µM, unit not given; relative to: maximum ACh response).
The Imax of `O=S(=O)(O)CCN1CCN(CCO)CC1` is reported as 2.7 ± 3.1 (Neuronal acetylcholine receptor; alpha4/beta2, (α4)2(β2)3 stoichiometry (Homo sapiens, UniProt P17787+P43681); ion current, positive allosteric modulator, two-electrode voltage clamp; Xenopus oocytes high-sensitivity; unit not given, together with: acetylcholine 10 µM; relative to: acetylcholine alone).
`COc1ccc(C)c2sc(NC(=O)c3ccc(C)cc3)nc12`: activity “inactive” (CHRM4; calcium mobilization, positive allosteric modulator; CHO expressing hM4 and Gqi5; concentration not given, together with: acetylcholine EC20).
`COC(=O)c1scc(C)c1NC(=O)C(C)N1CCN(C)C(C)C1` (stereo not shown) — result for “capacity factor k′”: 3.2 (SCN10A; cell membrane chromatography; higher = stronger binding).
`CC(=O)[C@H]1CC[C@H]2[C@@H]3CCC4=CC(=O)CC[C@]4(C)[C@H]3CC[C@]12C`: “maximal ligand binding increase” 15% (CYP17A1/POR, FMN domain fusion (Homo sapiens, UniProt P05093+P16435); UV-visible difference spectroscopy; FMN domain fusion; relative to: CYP17A1).
For `c1ccc2[nH]ccc2c1`, the conversion was 24.1% (Dehaloperoxidase B, ferric (Amphitrite ornata, UniProt Q9NAV7); substrate, HPLC; 500 µM, 5 min, pH 7, 25 °C, 5% methanol, together with: H2O2).
`COc1ccc(C)c2sc(NC(=O)Nc3ccncc3)nc12`: activity “inactive” (CHRM4; calcium mobilization, positive allosteric modulator; CHO expressing hM4 and Gqi5; concentration not given, together with: acetylcholine EC20).
With `O=S(=O)(Oc1ccccc1Cl)C1CC2OC1C(c1ccc(O)cc1)=C2c1ccc(O)cc1` (stereo not shown) the remaining activity was 86 ± 11% (ESR2; reporter gene, antagonist; HepG2 transfected with ERβ; 10 µM, together with: E2; relative to: E2).
Under “bound label stoichiometry”, `Nc1ccn([C@@H]2O[C@H](COP(=O)(O)OP(=O)(O)OP(=O)(O)O)[C@@H](O)C2(F)F)c(=O)n1` is recorded as 0.47 ± 0.02 mol/mol enzyme (Adenosylcobalamin-dependent ribonucleoside-triphosphate reductase (rtpR, Lactobacillus leichmannii, UniProt Q59490); mechanism-based inactivator, covalent radiolabelling; 2 min, pH 7.5, 37 °C, together with: AdoCbl, dATP, Mg2+).
With `NC1=CC(=O)c2ccc(-c3ccccn3)nc2C1=O` the kinact was 0.002 s⁻¹ (PADI4 (Homo sapiens, UniProt Q9UM07); enzyme activity, inhibitor).
`N#Cc1cnc(Nc2nc3ccccc3o2)nc1-c1ccccc1` gave a maximal response of 1.9 ± 3% (Grm5; calcium mobilization, negative allosteric modulator; together with: glutamate EC80; relative to: maximal glutamate response).
`NS(=O)(=O)c1ccc(COc2ccccc2-c2cc(=O)n(C3CCCCC3O)cn2)cc1` (stereo not shown): “ΔpEC50 of ACh” 1.52 ± 0.18 log units (CHRM1; positive allosteric modulator, IP1 accumulation; CHO-M1 cells; 10 µM, 60 min, 37 °C, together with: ACh; relative to: ACh alone, higher = stronger potentiation).
With `CCCOc1ccc(C(=O)Nc2ccc(Cl)cn2)cc1` the potentiation was 106% (Grm5; calcium mobilization, positive allosteric modulator; HEK293; concentration not given, together with: EC20 glutamate; relative to: maximal glutamate response).
`COc1ccc(COc2ccccc2-c2cc(=O)n(C3CCCCC3O)cn2)cc1` (stereo not shown): “ΔpEC50 of ACh” 0.78 ± 0.14 log units (CHRM1; positive allosteric modulator, IP1 accumulation; CHO-M1 cells; 1 µM, 60 min, 37 °C, together with: ACh; relative to: ACh alone, higher = stronger potentiation).
For `CC1(C)C=Cc2c(ccc3c2OC[C@@H](c2ccc(O)cc2O)C3)O1`, the direct activation was 0 (Gabra1/Gabrb2, with gamma2 subunit (Rattus norvegicus, UniProt P62813+P63138, M310W); ion current, agonist, two-electrode voltage clamp; Xenopus laevis oocytes expressing α1β2(M286W)γ2; 30 µM, unit not given, together with: no GABA; relative to: GABA current).
`O=c1cc(-c2ccccc2OCc2ccc(Br)cc2F)ncn1C1CCCCC1O` (stereo not shown) — result for “change in baseline activity”: 36 ± 2.8 (CHRM1; allosteric agonist, IP1 accumulation; CHO-M1 cells; 10 µM, unit not given; relative to: maximum ACh response).
`C=CC(=O)N1CCC(CCCC(=O)N2CCN(c3nc(-c4cnc(N)nc4C(F)F)nc(N4CCOCC4)n3)CC2)CC1` gave a kinact/KI of under 100000 M⁻¹ s⁻¹ (PIK3CA (Homo sapiens, UniProt P42336); covalent inhibitor).
`O=c1cc(-c2ccccc2OCc2ccc(Cl)nc2)ncn1C1CCCCC1O` (stereo not shown) — result for “ΔpEC50 of ACh”: 1.04 ± 0.12 log units (CHRM1; positive allosteric modulator, IP1 accumulation; CHO-M1 cells; 10 µM, 60 min, 37 °C, together with: ACh; relative to: ACh alone, higher = stronger potentiation).
`CCN(c1ccc(OC)cc1)S(=O)(=O)C1CC2OC1C(c1ccc(O)cc1)=C2c1ccc(O)cc1` (stereo not shown) gave an efficacy of -4 ± 4% (ESR2; reporter gene, antagonist; HepG2; together with: estradiol 10 nM; relative to: E2 response, negative is inverse agonism).
Under “change in baseline activity”, `CNC(=O)c1ccc(COc2ccccc2-c2cc(=O)n(C3CCCCC3O)cn2)cc1` (stereo not shown) is recorded as 88.3 ± 2.9 (CHRM1; allosteric agonist, IP1 accumulation; CHO-M1 cells; 1 µM, unit not given; relative to: maximum ACh response).
For `Tumor necrosis factor alpha`, “current share attributed to channel” read 93.4 ± 1.9% (Epithelial sodium channel subunit alpha, with beta, gamma subunits (Homo sapiens, UniProt P37088); activator, whole-cell patch clamp; A549; concentration not given, holding potential -100 mV).
